Experimental data of several laboratories.
Numbered parts are unrelated; each lists some results of a single study.

Series 1
Target: Sal-like protein 4, full length isoform B (SALL4, Homo sapiens, UniProt Q9UJQ4-2, residues 1-616)
Method: universal PBM
Molecule type: double-stranded DNA, one strand shown
Matrix: in vitro
Tested at: not given
Notes: 8-mer, flanks averaged, mean of replicates
Direction: higher = stronger binding
Sequence	E-score
AGCCCCGC	-0.248
TAAATACA	0.33
ATTACTAC	0.25
ATCAGGAG	0.0148
AATCCGTG	-0.151
CGGACCTC	-0.313
ACCATACA	0.028
AGCGGTTG	-0.23

Series 2
Target: Histone acetyltransferase KAT6A, winged helix 2, GST fusion (KAT6A, Homo sapiens, UniProt Q92794, residues 85-181)
Method: protein binding microarray
Molecule type: double-stranded DNA, one strand shown
Matrix: in vitro
Tested at: not given
Notes: 8-mer, flanks averaged, mean of 2 arrays, mostly near background
Reference: not given
Direction: higher = stronger binding
Construct (chain): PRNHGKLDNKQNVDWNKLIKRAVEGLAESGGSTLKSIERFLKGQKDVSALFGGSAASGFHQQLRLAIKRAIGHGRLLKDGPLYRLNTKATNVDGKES
Sequence	E-score
ATCGCTCA	-0.0129
AGCCCCAA	-0.113
GCCGGCCC	0.237
TCCTCAGA	-0.014
GCCTAGAC	-0.135
AGAACCAG	-0.0723
GATTGGTA	-0.00861
CCTCTTGA	-0.0762
AGCCTCTA	-0.149
CTGGAATA	-0.00686
GGTCGACC	0.147
CGTGCTCC	0.086

Series 3
Target: Ras GTPase-activating protein-binding protein 1, RRM domain (G3BP1, Homo sapiens, UniProt Q13283)
Sequence of UniProt Q13283 (whole entry, looked up): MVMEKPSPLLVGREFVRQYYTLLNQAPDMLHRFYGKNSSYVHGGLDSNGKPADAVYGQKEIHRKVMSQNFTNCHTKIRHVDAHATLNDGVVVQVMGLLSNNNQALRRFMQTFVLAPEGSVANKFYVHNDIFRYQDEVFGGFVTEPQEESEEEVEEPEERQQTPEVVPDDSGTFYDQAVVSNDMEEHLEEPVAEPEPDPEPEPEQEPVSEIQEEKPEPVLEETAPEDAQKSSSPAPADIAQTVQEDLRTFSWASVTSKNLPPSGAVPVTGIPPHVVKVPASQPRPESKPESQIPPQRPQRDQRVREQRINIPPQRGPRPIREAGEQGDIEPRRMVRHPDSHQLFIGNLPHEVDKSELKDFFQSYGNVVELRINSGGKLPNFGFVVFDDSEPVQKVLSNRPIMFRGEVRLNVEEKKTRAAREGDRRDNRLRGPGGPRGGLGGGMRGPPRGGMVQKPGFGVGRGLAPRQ
Method: RNA Bind-n-Seq
Molecule type: RNA
Matrix: in vitro
Tested at: 1 µM
Notes: whole 134-nt RNA, ends assumed
Together with: 150 mM KCl
Reference: input library
Direction: higher = stronger binding
Sequence	log2 enrichment
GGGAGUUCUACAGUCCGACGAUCAGUCCUGUGCUACACAUCGUAUGUACCGAAUCAAAUUUUUAAACCCAAACCCCCAAAAAAGUAUUAUGUUACGCCGUUCGGAUCUGCACUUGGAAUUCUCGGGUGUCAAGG	-0.59
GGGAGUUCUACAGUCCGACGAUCGUCCUGUGCUACACAUCGUAUGUACCGAAUCGGGGUUUUUGGGGAGGGGUUUUUGGGGAAAGUAUUAUGUUACGCCGUUCGGAUCUGCACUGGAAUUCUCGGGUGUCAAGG	0.906
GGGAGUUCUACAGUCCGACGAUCAGUCCUGUGCUACACAUCGUAUGUACCGAAUCGGGGUUUGGGGUUUUUGGGGAGGGGAAAGUAUUAUGUUACGCCGUUCGGAUCUGCACUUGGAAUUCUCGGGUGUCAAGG	1.16
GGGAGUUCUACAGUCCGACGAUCCCUGUGCUACACAUCGUAUGUACCGAAUCGGGGAAAGGGGAAAAAAAGGGGUUUUUGGGGAAAGUAUUAUGUUACGCCGUUCGGAUCUGCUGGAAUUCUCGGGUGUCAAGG	0.717
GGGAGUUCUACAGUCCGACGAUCAGUCCUGUGCUACACAUCGUAUGUACCGAAUCAAAUUUAAACCCAAAUUUUUUUAAAAAAGUAUUAUGUUACGCCGUUCGGAUCUGCACUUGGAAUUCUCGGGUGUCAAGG	-0.509
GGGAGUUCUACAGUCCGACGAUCCUCAGACAACACGCACCCACACAGACACAGAGGGAAGGGGUUGGGAUGGGGACAGGGUGCACAGCAGGGCGGGGUAGGACCCCAGCCCCUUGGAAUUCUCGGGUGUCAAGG	-0.123
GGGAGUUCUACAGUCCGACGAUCUGGCCCUGGUGGCAUGCGGGGAGGAAGAGGUGGCCUCAUGGAUCGUGGUGGUCCCGGUGGAAUGUUCGGAGGUGGCCGUGGUGGAGACAGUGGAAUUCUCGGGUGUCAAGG	1.76
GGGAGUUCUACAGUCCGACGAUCUGGCAGCGGCCAUGGACCGCUUCGUUUGGACCAGCGGCCUCCUGGAGAUCAACGAGACCCUGGUGAUCCAGCAGCGCGGGGUGCGAAUCUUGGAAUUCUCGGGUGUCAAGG	-0.465

Single results of other studies
Molecule	target	assay	system	conditions	scale	measurement	result
PhoQ, residues 284 288 289 292 302 303 SLANIV	PhoP, residues 12 14 15 18 19 NMSSL (Escherichia coli, UniProt P23836)	Sort-seq, refers to: YFP reporter	E. coli	PhoQ-PhoP variant library, together with: 10 µM Mg2+	reference: high Mg2+ state, higher = stronger signaling	fold induction	2.89

A few entries again (series 2):
Sequence	E-score
TCCTCAGA	-0.014
AGCCTCTA	-0.149
CCTCTTGA	-0.0762
AGCCCCAA	-0.113
